Published values gathered from unrelated publications.
Each numbered part is a random draw from the data of one study; scales do not carry over between parts.

Block 1 — method: universal PBM; form: double-stranded DNA, one strand shown; sample: in vitro; concentration: not given; reading: higher = stronger binding; measurement: E-score
Target: Sal-like protein 4, full length isoform B (SALL4, Homo sapiens, UniProt Q9UJQ4-2, residues 1-616)
Notes: 8-mer, flanks averaged, mean of replicates
Residues (chain): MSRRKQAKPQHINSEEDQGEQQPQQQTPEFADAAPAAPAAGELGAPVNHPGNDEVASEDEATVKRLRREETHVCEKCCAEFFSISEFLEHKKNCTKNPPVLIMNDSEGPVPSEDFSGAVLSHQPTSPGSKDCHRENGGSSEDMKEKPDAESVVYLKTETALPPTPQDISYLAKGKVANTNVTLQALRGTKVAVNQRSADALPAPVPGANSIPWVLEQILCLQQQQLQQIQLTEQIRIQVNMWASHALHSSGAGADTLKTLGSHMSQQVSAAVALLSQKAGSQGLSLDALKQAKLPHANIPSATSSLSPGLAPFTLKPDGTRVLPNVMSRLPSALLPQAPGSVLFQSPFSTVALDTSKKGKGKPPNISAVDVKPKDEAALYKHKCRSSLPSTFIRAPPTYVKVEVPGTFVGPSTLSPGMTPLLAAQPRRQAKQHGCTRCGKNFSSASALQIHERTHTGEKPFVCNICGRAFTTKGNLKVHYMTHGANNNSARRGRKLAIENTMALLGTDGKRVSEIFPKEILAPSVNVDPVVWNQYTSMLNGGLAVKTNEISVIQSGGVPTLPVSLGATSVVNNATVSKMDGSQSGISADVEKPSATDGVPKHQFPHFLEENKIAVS
AAAGTACG: 0.132
AAATTGAC: 0.156
GCTGGGCC: -0.396

Block 2 — method: protein binding microarray; form: double-stranded DNA, one strand shown; sample: in vitro; concentration: not given; relative to: not given; reading: higher = stronger binding; measurement: E-score
Target: Histone acetyltransferase KAT6A, winged helix 2, GST fusion (KAT6A, Homo sapiens, UniProt Q92794, residues 85-181)
Notes: 8-mer, flanks averaged, mean of 2 arrays, mostly near background
Target sequence (chain): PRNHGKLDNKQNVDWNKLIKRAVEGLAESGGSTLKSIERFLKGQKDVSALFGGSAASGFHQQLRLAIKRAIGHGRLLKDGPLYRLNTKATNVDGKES
ACGCTGAA: -0.112
ATATGCCC: -0.242
CCACAAGA: 0.0934

Block 3 — method: competition protein-binding microarray; form: double-stranded DNA, one strand shown; sample: in vitro; concentration: 2 µM; with: Pho4 competitor, 0.05 µM; reading: higher = stronger binding; measurement: fluorescence intensity
Target: Centromere-binding protein 1, full length, His-tagged (CBF1, Saccharomyces cerevisiae, UniProt P17106, residues 1-351)
Chain of UniProt P17106 (whole entry, looked up): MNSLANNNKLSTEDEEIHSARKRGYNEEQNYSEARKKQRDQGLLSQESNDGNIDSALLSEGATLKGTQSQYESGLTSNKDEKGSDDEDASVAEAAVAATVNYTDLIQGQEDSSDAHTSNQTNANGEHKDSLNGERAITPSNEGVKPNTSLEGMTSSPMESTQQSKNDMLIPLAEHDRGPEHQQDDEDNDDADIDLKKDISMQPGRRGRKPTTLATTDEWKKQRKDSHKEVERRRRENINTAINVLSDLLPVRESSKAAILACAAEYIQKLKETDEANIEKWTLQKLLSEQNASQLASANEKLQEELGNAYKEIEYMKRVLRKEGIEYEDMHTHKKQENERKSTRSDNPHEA
Notes: whole 60-bp probe, lowest competitor level
CTTTCCCGATCTTGTGAGGTGGGTGTAGCACATTTGGTCTTGATTCGCTTGACGCTGCTG: 76.5 a.u.
ATTACATGGTGCTTGCTCGGGCTTTTTGGGATAAGAGTCTTGATTCGCTTGACGCTGCTG: 68.3 a.u.
CATACCCAACCTTGTTGGGTGGGTGAAGATATTTGTGTCTTGATTCGCTTGACGCTGCTG: 60.3 a.u.
TGGCAGTAACACCGTCACGCTTTTCATGTTTATGGCGTCTTGATTCGCTTGACGCTGCTG: 230 a.u.

Mixed results
PhoQ, residues 284 288 289 292 302 303 HSSMNL  fold induction (PhoP, residues 12 14 15 18 19 LWHVM (Escherichia coli, UniProt P23836); Sort-seq, refers to: YFP reporter; E. coli; PhoQ-PhoP variant library, with: 10 µM Mg2+; relative to: high Mg2+ state, higher = stronger signaling): 15.5
